Measurements pooled from the literature.
Each numbered part is a random draw from the data of one study; scales do not carry over between parts. Values joined by “and” are separate records of one study, mostly repeats; a detail may differ.
UniProt Q9UKS7, sequence (whole entry, looked up): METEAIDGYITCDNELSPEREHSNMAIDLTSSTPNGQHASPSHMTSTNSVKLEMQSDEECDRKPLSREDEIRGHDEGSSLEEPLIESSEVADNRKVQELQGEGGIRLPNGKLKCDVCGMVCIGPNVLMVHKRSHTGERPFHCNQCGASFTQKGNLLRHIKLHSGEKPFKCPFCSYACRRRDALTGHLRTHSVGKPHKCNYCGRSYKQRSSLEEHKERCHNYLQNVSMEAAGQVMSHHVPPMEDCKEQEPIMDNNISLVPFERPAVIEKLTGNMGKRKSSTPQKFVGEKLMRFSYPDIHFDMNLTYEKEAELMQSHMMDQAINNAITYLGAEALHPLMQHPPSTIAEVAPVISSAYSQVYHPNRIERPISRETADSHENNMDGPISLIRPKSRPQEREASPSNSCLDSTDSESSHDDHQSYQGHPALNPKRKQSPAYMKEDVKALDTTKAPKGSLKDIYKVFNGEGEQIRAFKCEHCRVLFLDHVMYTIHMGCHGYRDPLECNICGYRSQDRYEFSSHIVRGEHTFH
UniProt Q96SW2, sequence (whole entry, looked up): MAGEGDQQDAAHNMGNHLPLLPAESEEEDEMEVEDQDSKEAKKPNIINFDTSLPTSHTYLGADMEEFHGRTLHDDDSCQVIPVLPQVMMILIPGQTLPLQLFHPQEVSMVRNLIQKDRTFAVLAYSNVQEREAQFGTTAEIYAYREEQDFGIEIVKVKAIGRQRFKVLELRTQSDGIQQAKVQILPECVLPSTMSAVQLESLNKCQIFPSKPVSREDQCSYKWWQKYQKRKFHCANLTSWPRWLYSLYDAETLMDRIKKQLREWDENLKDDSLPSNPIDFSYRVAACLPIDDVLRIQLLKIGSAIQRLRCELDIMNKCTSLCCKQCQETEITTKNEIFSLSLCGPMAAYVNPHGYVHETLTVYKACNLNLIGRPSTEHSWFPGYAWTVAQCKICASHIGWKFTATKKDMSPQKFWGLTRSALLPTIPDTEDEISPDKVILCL

Study 1
Target: Membrane-associated tyrosine- and threonine-specific cdc2-inhibitory kinase (PKMYT1, Homo sapiens, UniProt Q99640)
Effect on: binding
Method: HTRF
Concentration: 333.33 nM
Target sequence (Q99640 1-499): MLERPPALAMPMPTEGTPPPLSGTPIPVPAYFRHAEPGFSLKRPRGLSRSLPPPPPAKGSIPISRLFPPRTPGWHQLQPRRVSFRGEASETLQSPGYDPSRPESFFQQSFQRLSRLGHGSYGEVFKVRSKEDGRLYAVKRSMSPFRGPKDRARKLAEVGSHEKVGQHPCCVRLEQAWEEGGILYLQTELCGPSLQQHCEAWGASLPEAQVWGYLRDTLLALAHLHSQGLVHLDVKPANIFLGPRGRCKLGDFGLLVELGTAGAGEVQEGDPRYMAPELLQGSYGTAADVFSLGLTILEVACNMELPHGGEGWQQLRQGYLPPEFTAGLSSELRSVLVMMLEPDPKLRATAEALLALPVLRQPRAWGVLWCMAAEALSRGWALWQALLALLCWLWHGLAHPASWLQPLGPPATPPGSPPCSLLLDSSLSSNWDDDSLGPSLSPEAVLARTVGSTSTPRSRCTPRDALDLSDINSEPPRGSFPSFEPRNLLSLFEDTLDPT
Structure (SMILES)	inhibition
Cc1ccc(O)c(C)c1-c1cnc2[nH]c(-c3cnc(N4CCC(CN5CCN(c6ccc7c8c(cccc68)C(=O)N7C6CCC(=O)NC6=O)CC5)CC4)nc3)cc2c1C#N (racemic)	98.4% and 98.2%
Cc1ccc(O)c(C)c1-c1cnc2[nH]c(-c3cnc(N4CCC(CN5CCN(c6ccc(C(=O)NC7CCC(=O)NC7=O)c(F)c6)CC5)CC4)nc3)cc2c1C#N (racemic)	98.2% and 102%
Cc1ccc(O)c(C)c1-c1cnc2[nH]c(-c3cnc(N4CCC(CN5CCN(c6ccc(N7CCC(=O)NC7=O)cc6F)CC5)CC4)nc3)cc2c1C#N	98.9% and 98.8%

Study 2
Structure (SMILES): C#CCN1C(=O)C(O)(C(=O)O)Oc2cc(F)ccc21 (centres unmarked)
organism	assay	test system	setting	inhibition
Abutilon theophrasti	fresh weight	–	150 g ai/ha, pre-emergence treatment	70.5% and 72.4% and 70.1%
Eclipta prostrata	fresh weight	–	150 g ai/ha, post-emergence treatment	78.4% and 76.9% and 79.9%
Arabidopsis thaliana	root length	Col-0	50.0 µg/mL, 7 days, seed germination, dark	87%
Setaria viridis	fresh weight	–	150 g ai/ha, pre-emergence treatment	99.8% and 100%
Arabidopsis thaliana	hypocotyl length	Col-0	50.0 µg/mL, 7 days, seed germination, dark	61.9%
Zea mays	fresh weight	–	soil surface spray, 150 g ai/ha, 21 days, pre-emergence crop safety	6.4% and 5.5% and 5.8%
Echinochloa crus-galli	fresh weight	–	150 g ai/ha, post-emergence treatment	44.2% and 47.5% and 47.7%
Alopecurus japonicus	fresh weight	–	150 g ai/ha, pre-emergence treatment	38% and 38.5% and 41.1%

Study 3
Structure (SMILES): CCOC(=O)/C=C/CN(CCCCN1c2ccccc2CCc2ccc(Cl)cc21)Cc1ccccc1.O=C(O)/C=C\C(=O)O
Target: E3 ubiquitin-protein ligase NEDD4, HECT domain (Homo sapiens, UniProt P46934)
UniProt P46934, sequence (whole entry, looked up): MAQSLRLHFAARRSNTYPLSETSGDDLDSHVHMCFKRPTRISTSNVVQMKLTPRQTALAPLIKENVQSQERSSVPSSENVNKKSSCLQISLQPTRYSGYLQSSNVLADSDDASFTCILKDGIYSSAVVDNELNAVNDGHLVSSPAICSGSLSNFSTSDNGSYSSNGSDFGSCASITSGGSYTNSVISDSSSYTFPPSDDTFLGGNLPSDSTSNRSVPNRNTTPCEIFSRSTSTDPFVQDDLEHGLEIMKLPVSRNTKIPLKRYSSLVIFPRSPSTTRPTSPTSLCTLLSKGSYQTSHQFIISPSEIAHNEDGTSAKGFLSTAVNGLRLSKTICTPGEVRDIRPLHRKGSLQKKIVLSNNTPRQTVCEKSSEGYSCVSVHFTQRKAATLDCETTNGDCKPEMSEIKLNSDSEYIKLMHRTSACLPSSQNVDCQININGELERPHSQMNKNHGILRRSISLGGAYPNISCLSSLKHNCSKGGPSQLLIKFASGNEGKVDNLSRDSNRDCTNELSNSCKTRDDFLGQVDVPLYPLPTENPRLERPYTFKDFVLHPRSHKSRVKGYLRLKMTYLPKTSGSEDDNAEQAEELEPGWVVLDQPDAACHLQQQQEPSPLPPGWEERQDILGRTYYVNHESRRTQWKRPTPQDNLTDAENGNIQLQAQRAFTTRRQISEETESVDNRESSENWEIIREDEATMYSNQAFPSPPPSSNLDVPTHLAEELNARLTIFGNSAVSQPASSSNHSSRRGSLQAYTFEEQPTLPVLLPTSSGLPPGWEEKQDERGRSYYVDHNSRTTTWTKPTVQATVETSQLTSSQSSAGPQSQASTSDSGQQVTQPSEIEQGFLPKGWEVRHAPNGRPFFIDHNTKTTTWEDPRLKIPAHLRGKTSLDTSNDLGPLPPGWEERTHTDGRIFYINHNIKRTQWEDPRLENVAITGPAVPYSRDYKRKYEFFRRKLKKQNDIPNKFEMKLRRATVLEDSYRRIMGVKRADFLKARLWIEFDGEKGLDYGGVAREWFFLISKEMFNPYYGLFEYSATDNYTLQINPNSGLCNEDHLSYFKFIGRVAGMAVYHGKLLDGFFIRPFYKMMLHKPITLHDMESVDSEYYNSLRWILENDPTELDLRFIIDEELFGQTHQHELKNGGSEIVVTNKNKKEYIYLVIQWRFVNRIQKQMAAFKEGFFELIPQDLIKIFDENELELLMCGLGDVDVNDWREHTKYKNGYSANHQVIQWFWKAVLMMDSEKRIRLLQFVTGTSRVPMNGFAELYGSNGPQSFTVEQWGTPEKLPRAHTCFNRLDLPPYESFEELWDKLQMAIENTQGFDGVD
Effect on: enzyme activity
Mode: inhibitor
Method: Ub-TR-FRET
Matrix: HECT domain
Reading: higher = more chain formation
setting	ubiquitin chain formation AUC
0.01524 µM	95600 a.u. and 105000 a.u. and 101000 a.u. and 93100 a.u. and 97100 a.u. and 102000 a.u.
0.04572 µM	105000 a.u. and 96200 a.u. and 104000 a.u. and 96700 a.u. and 102000 a.u. and 94800 a.u.
11.11 µM	114000 a.u. and 106000 a.u. and 105000 a.u. and 104000 a.u. and 115000 a.u. and 113000 a.u.
33.33 µM	111000 a.u. and 117000 a.u. and 121000 a.u.
0.1372 µM	102000 a.u. and 103000 a.u. and 96200 a.u. and 96500 a.u. and 104000 a.u. and 94800 a.u.
0.4115 µM	97400 a.u. and 105000 a.u. and 94600 a.u. and 104000 a.u. and 96500 a.u.
1.235 µM	104000 a.u. and 99500 a.u. and 97000 a.u. and 99400 a.u. and 108000 a.u.
3.704 µM	100000 a.u. and 99300 a.u. and 95500 a.u. and 111000 a.u. and 108000 a.u. and 107000 a.u.
0.005081 µM	94600 a.u. and 101000 a.u. and 95900 a.u. and 102000 a.u. and 103000 a.u. and 94000 a.u.
100 µM	111000 a.u. and 123000 a.u. and 119000 a.u. and 112000 a.u. and 124000 a.u. and 110000 a.u.

Further values, each from its own experiment
Structure (SMILES)	target or system	assay	test system	setting	quantity	result
O=C1CCC(N2Cc3c(ccc4c3OCC43CCN(Cc4ccccc4)CC3O)C2=O)C(=O)N1 (centres unmarked)	CRBN/Zinc finger protein Helios (Homo sapiens, UniProt Q96SW2+Q9UKS7)	degrader, HiBiT	HEK293	0.5081 nM	protein remaining	104%
Cn1cc(-c2cccc(CN3CCC4(CC3)COc3c4ccc4c3CN([C@H]3CCC(=O)NC3=O)C4=O)c2)cn1	–	–	Caco-2	–	Papp A→B	5.9 ×10⁻⁶ cm/s

Repeated from above (study 3):
setting	ubiquitin chain formation AUC
0.005081 µM	94600 a.u. and 101000 a.u. and 95900 a.u. and 102000 a.u. and 103000 a.u. and 94000 a.u.
